Results collected from several papers.
Parts stem from different laboratories: compare values within a part only. Changes are numbered by the printed parent chain.

Set 1 — technique: protein-binding microarray; molecule type: double-stranded DNA, one strand shown; sample: in vitro; concentration: 2540 nM top; notes: 60-bp whole probe; with: salmon DNA 0.4 mg/ml; baseline: random background probes; direction: higher = stronger binding; all sequences stand within: GCCTAGCAC … GTCTTGATTCGCTTGACGCTGCTG
Target: Interferon regulatory factor 3, full length, phosphomimetic (IRF3, Homo sapiens, UniProt Q14653, residues 1-427, S386D/S396D/S398D/S402D/T404D/S405D)
Residues (chain): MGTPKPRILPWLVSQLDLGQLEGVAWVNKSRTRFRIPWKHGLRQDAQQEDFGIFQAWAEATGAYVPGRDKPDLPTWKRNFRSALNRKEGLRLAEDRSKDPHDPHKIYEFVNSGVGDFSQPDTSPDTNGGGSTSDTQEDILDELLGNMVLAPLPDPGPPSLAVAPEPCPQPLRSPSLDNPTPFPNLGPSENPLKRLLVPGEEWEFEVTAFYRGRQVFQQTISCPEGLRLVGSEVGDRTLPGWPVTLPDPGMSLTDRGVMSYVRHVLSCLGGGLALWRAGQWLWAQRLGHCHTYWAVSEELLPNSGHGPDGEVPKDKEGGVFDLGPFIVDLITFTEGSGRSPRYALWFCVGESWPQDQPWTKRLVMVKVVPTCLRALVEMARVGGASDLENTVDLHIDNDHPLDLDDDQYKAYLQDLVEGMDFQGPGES
Oligonucleotide | fitted relative affinity [z-score]
GATGGACTGGACTATCGGGACGTGCTA | -0.676
TTAGAACAGAGTTTCGATTAGTGCTAG | 2.53
TTAGATTCCAGTTTCGATAAGTGCTAG | 4.82
GACGGTATCGACTATCGGGACGTGCTA | 0.592
ATAGGTTTCGGTATCGGTTAGTGCTAG | 9.42
TTAGATGTCAGACTGGATTAGTGCTAG | -0.0555
TATGTTCCCTATATAAGGCGGTGCTAG | 2.37

Set 2 — target: CCNE2, cyclin fold, Cln2 fusion (human); technique: yeast growth competition, sequencing; sample: yeast; notes: weak parent motif; baseline: not given; direction: higher = stronger binding
Starting sequence: ORC1 docking peptide (human); PRARKRLELGNLG
Change | normalised enrichment score
R4C | 0.202
L9Q | 1.15
P1V | -0.114
L7V | -0.648
R6G | 1.16
G10S | 0.36
R2Q | 0.293

Set 3 — technique: competition protein-binding microarray; molecule type: double-stranded DNA, one strand shown; sample: in vitro; concentration: 2 µM; with: Cbf1 competitor, 0.05 µM; direction: higher = stronger binding; all sequences stand within: … GTCTTGATTCGCTTGACGCTGCTG
Target: Phosphate system positive regulatory protein PHO4, full length, GST-tagged (PHO4, Saccharomyces cerevisiae, UniProt P07270, residues 1-312)
Notes: whole 60-bp probe, lowest competitor level
Target sequence (chain): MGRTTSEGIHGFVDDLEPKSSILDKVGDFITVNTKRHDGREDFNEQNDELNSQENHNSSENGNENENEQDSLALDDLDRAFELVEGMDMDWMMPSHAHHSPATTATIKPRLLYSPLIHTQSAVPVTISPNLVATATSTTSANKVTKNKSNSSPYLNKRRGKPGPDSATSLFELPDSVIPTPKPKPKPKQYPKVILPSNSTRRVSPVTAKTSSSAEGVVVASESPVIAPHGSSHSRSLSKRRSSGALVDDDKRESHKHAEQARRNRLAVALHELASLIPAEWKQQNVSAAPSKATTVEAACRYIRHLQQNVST
Oligonucleotide | fluorescence intensity
AAAGCGGTAATTTGTTAAGTGGGTGCAGATATCTAT | 4740 a.u.
AAATTACTAAGTTTTCACGTGAGCTACCCCGTATGA | 9410 a.u.
GGATTTATAGTACCGTGCGTGCAAACTTAGACTGAA | 8670 a.u.
AAATTACTAAGTTGAAGGGTGGGTGACGCCGTATGA | 4020 a.u.
TGTAAATTTTTTTCAGCCACTTTATCGGCACTGGAA | 2900 a.u.
CTTCTGTAAATTTGCCATGTGGGTGGACGCGCCCCG | 10800 a.u.
CTTGCCAGGTACCATCACGCACGGCATGTTTTCTTC | 8540 a.u.

Further values, each from its own experiment
Molecule | target | assay | test system | conditions | how to read | quantity | value
PhoQ, residues 284 288 289 292 302 303 NLGVHL | PhoP, residues 12 14 15 18 19 NQAHL (Escherichia coli, UniProt P23836) | Sort-seq, refers to: YFP reporter | E. coli | PhoQ-PhoP variant library, with: 10 µM Mg2+ | baseline: high Mg2+ state, higher = stronger signaling | fold induction | 18

For quick reference, copied from above (set 3):
Oligonucleotide | fluorescence intensity
AAATTACTAAGTTGAAGGGTGGGTGACGCCGTATGA | 4020 a.u.
TGTAAATTTTTTTCAGCCACTTTATCGGCACTGGAA | 2900 a.u.
